# Measured values collected from several papers.
# Parts stem from different laboratories: compare values within a part only. Positions count from the first letter of the parent shown.

# Study 1 — method: RNA Bind-n-Seq; form: RNA; sample: in vitro; tested at: 365 nM; reference: no-protein control; direction: higher = stronger binding
# Target: RNA binding protein fox-1 homolog 2, RRM domain, GST-SBP tag (RBFOX2, Homo sapiens, UniProt O43251-10, residues 100-194)
# Notes: natural RNA segment, single round, ends assumed
# All sequences stand within: GGGAGUUCUACAGUCCGACGAUC … UGGAAUUCUCGGGUGCCAA
# Construct (chain): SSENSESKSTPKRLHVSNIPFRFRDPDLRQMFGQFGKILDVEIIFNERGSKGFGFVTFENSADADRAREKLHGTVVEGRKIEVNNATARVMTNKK
Sequence,RBNS enrichment (R)
UAAUAGAGUGGUAUGACAUGGCACUAAAAAUAUAAAUUUUUGUUGUAAGUCAGGAUUGGAGUAAGCUGGAAAAGUAUGUUUAGGCAAAUCUUGGAGAAAACCAACCAUAA,1.17
CACGAGACCCCGGCUUCCUUUCCCAAGCCUUCGGGCGUCUGUGUGCGCUCUGUGGAUGCCAGGGCCGACCAGAGGAGCCUUUUUAAAACACAUGUUUUUAUACAAAAUAA,0.435
GUUACAAGGUAAGCUAGGUUGCCCACUUGCCCACUCGUCCUCUCCCUGCUGCAGUCUCUUGGGUCUCACACGCACUGCAAAUGCUAAGCGAUGGCCAGCUGUCUCCCUCC,0.521
CUUUGACUCCCUGACCUCCAGAGCCAGGGUUGUGCCUUAUUGUCCCAUCUGUGGGCCUCAUUCUGCCAAAGCUGGACCAAGGCUAACCUUUCUAAGCUCCCUAACUUGGG,0.289
UUUACUGUUAUCCUAUUUAGAUGGCCAUGAAGAGGAUGCUGUGAAAUUCCCAACAAACAUUGAUGCUGACAGUCAUGCAGUCUGGGAGUGGGGAAGUGAUCUUUUGUUCC,0.341
AUGAUGCAAGCAGCCAUGACCCACAUUCUGUUGCUGCCUCGUUUAUGCAGAAGGUCUGAUUCCAGAUCGUACCUAAGCAAGACAAUGCUCCAAGACUGUACCAAGCCAAG,0.255
CCUUUGUCCUUUGCUUGGCCUAAGAUGCCAAUGCCCCGCCAUGUUUUCUCCAGAGAGUCCUUGGGGUGAGCCUUGGGGCACAGGUACACUCAGAGGUCUGAGAGCCUACC,0.445
AUUGUGUUCCUUCUACAAGUACAGAGUGAAUGAGCAUCCUAGAGAAACUGUCUGGUGUUGGGAAGGGAUGAGUUCUUGUAAAUCUGUAAAUAGCUUCAAUAAGAUGUAAA,0.834

# Study 2 — method: protein binding microarray; form: double-stranded DNA, one strand shown; sample: in vitro; tested at: not given; reference: not given; direction: higher = stronger binding
# Target: Histone acetyltransferase KAT6A, winged helix 1, GST fusion (KAT6A, Homo sapiens, UniProt Q92794, residues 1-85)
# Notes: 8-mer, flanks averaged, mean of 2 arrays, mostly near background
# Construct (chain): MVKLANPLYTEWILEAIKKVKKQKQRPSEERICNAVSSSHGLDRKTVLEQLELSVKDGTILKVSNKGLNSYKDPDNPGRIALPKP
Sequence,E-score
AATTCATC,-0.0373
TGTTACAA,-0.123
TGAACTAA,-0.122
CCGTGGAC,0.313
AGACTGTA,-0.0734
GCTCAACA,-0.0247
ATCATCGA,-0.149
TCCAGCCA,-0.163
CCAAAAAA,-0.203
ACGACCTA,-0.127
ACTGGTTA,-0.0744
GGGTTGTA,0.0425
AGATTTAT,0.0255
GGGGGCAA,0.0778
AAAATGCG,0.252
ACGACTTA,-0.0753
CACGACGC,0.23
GCGGGACC,0.355

# Study 3 — target: CCND1, cyclin fold, Cln2 fusion (human); method: yeast growth competition, sequencing; sample: yeast; notes: weak parent motif; reference: not given; direction: higher = stronger binding
# Starting sequence: DNAH7 docking peptide (human); HELFQRLDFDNDG
Variant,normalised enrichment score
HEAFQRLDFDNDG [L3A],0.31
HELAQRLDFDNDG [F4A],0.248
HELFQRLDADNDG [F9A],0.0687
HELFQRADFDNDG [L7A],0.0567
AELFQRLDFDNDG [H1A],0.381
HELFQRLDFANDG [D10A],0.287
HELFQRLDFDADG [N11A],0.394

# Study 4 — method: universal PBM; form: double-stranded DNA, one strand shown; sample: in vitro; tested at: not given; direction: higher = stronger binding
# Target: Sal-like protein 4, full length isoform B (SALL4, Homo sapiens, UniProt Q9UJQ4-2, residues 1-616)
# Notes: 8-mer, flanks averaged, mean of replicates
# Residues (chain): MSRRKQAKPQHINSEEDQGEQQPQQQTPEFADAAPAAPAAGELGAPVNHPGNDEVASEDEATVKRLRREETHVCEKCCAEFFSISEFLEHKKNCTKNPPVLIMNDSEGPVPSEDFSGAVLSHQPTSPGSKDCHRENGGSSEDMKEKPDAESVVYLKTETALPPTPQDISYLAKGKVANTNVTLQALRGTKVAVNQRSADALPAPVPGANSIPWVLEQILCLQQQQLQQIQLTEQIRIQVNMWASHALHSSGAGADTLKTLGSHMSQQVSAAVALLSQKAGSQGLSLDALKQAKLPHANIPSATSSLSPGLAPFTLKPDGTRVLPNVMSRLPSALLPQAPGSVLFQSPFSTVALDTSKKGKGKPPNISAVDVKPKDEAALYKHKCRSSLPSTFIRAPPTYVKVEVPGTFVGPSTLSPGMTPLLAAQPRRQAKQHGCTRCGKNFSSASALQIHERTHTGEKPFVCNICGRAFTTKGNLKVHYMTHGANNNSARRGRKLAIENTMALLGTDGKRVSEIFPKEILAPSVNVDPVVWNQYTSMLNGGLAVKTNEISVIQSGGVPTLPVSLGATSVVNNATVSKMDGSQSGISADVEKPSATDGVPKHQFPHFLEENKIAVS
Sequence,E-score
CGTGACAC,-0.00847
AGAGTGCC,-0.146
CCCCTAGC,-0.257
CTCCGAGC,-0.206
AGTGTGCG,-0.186
CTATACAA,0.285
ATATTCAA,0.355
AAGCTGCT,-0.276
ATGATCCG,-0.08
CCCGATTC,-0.0986
AACCATAT,0.307
GCGCTAGA,-0.147
ACACTTTC,0.057
AACGTCTT,0.0349
AACTCGGT,-0.0506
GGGTCCGA,-0.281
AGCAACTA,0.214
CCCAACAG,-0.196
GTATATCA,0.341
CCGTATGC,-0.164
AATTCGCT,0.0942
TCTGCTCA,-0.0598
CGAACCTA,-0.142
AACACCAC,0.00328
AGCGAACG,-0.29

# Study 5 — method: RNA Bind-n-Seq; form: RNA; sample: in vitro; tested at: 1 µM; notes: whole 134-nt RNA, ends assumed; together with: 150 mM KCl; reference: input library; direction: higher = stronger binding
# Target: Ras GTPase-activating protein-binding protein 1, C-terminal RGG region (G3BP1, Homo sapiens, UniProt Q13283)
# Sequence of UniProt Q13283 (whole entry, looked up): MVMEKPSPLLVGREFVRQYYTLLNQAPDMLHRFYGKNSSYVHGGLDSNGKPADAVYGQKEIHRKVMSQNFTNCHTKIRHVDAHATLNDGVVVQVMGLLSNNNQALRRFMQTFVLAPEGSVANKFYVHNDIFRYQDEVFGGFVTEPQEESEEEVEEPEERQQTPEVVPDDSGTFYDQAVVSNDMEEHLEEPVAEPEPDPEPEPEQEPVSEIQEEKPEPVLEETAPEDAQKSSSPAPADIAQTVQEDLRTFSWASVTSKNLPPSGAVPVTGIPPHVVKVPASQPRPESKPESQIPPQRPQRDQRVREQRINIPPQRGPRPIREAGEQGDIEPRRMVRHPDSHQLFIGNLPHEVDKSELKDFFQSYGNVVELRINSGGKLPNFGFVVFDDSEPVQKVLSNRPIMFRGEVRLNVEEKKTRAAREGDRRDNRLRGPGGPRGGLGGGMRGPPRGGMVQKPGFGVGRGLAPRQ
# All sequences stand within: GGGAGUUCUACAGUCCGACGAUC … UGGAAUUCUCGGGUGUCAAGG
Sequence,log2 enrichment
UGUGCUACACAUCGUAUGUACCGAAUCGGGCCCCCCCGGGCCCCCCCGGGGCCCCCCCGGGGAAAGUAUUAUGUUACGCCGUUCGGAUCU,-2.69
AGUCCUGUGCUACACAUCGUAUGUACCGAAUCGGGUUUUUGGGAGGGUUUUUUUGGGAAAGUAUUAUGUUACGCCGUUCGGAUCUGCACU,0.564
AGUCCUGUGCUACACAUCGUAUGUACCGAAUCGGAAAAAAAGGAAAAAGGUUUUUGGAAAGUAUUAUGUUACGCCGUUCGGAUCUGCACU,-2
UGGCCCUGGUGGCAUGCGGGGAGGAAGAGGUGGCCUCAUGGAUCGUGGUGGUCCCGGUGGCAUGUUCAGAGGUGGCCGUGGUGGAGACAG,2.47
UCCUGUGCUACACAUCGUAUGUACCGAAUCGGUUUUUUUGGAAAAAAAGGAAAAAAAGGAAAGUAUUAUGUUACGCCGUUCGGAUCUGCA,-1.37
UCCUGUGCUACACAUCGUAUGUACCGAAUCGGGUUUUUUUGGGAAAGGGAAAAAAAGGGAAAGUAUUAUGUUACGCCGUUCGGAUCUGCA,-0.856
CUGUGCUACACAUCGUAUGUACCGAAUCGGGGUUUUUUUGGGGUUUGGGGAAAAAAAGGGGAAAGUAUUAUGUUACGCCGUUCGGAUCUG,-0.339
AGUCCUGUGCUACACAUCGUAUGUACCGAAUCGGGUUUUUGGGUUUGGGAAAAAGGGAAAGUAUUAUGUUACGCCGUUCGGAUCUGCACU,0.333
CAAGUCCUGUGCUACACAUCGUAUGUACCGAAUCGGGGUUUGGGGAGGGGUGGGGAAAGUAUUAUGUUACGCCGUUCGGAUCUGCACUUC,2.67
